{"data": "Assay results collected from several papers", "note": "Parts stem from different laboratories: compare values within a part only. Positions count from the first letter of the parent shown."}
{"data": "Study 1", "target": "CCNA1, cyclin fold, Cln2 fusion (human)", "technique": "yeast growth competition, sequencing", "medium": "yeast", "setting": "weak parent motif", "baseline": "not given", "direction": "higher = stronger binding", "starting sequence": "PKMYT1 docking peptide (human); SFEPRNLLSLFED; partner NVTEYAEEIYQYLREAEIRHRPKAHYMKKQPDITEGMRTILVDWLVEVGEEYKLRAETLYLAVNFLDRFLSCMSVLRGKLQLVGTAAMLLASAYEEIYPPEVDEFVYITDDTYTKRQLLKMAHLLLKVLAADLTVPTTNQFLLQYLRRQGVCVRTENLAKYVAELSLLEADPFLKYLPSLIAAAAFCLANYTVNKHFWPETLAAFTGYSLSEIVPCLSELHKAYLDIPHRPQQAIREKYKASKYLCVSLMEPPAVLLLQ"}
{"Variant": "SFEPRDLLSLFED [N6D]", "normalised enrichment score": 0.144}
{"Variant": "SFEPRNLLSGFED [L10G]", "normalised enrichment score": 0.291}
{"Variant": "SFEPRNLLSLLED [F11L]", "normalised enrichment score": 0.0244}
{"Variant": "SFEPRNMLSLFED [L7M]", "normalised enrichment score": 0.372}
{"Variant": "SFDPRNLLSLFED [E3D]", "normalised enrichment score": 0.18}
{"Variant": "SFEPRNLLSLPED [F11P]", "normalised enrichment score": 0.132}
{"Variant": "SFEPRNLKSLFED [L8K]", "normalised enrichment score": 0.311}
{"Variant": "SFEPRNLLSLFEH [D13H]", "normalised enrichment score": -0.0799}
{"Variant": "GFEPRNLLSLFED [S1G]", "normalised enrichment score": 0.336}
{"Variant": "RFEPRNLLSLFED [S1R]", "normalised enrichment score": 0.405}
{"Variant": "SFCPRNLLSLFED [E3C]", "normalised enrichment score": 0.197}
{"Variant": "SFEPRNLLCLFED [S9C]", "normalised enrichment score": 0.0161}
{"Variant": "SFEPRNLLSLFEK [D13K]", "normalised enrichment score": 0.0428}
{"data": "Study 2", "target": "Sal-like protein 4, full length isoform A (SALL4, Homo sapiens, UniProt Q9UJQ4, residues 1-1053)", "technique": "universal PBM", "molecule type": "double-stranded DNA, one strand shown", "medium": "in vitro", "tested at": "600 nM", "setting": "8-mer, flanks averaged, mean of replicates", "direction": "higher = stronger binding", "sequence of UniProt Q9UJQ4 (whole entry, looked up)": "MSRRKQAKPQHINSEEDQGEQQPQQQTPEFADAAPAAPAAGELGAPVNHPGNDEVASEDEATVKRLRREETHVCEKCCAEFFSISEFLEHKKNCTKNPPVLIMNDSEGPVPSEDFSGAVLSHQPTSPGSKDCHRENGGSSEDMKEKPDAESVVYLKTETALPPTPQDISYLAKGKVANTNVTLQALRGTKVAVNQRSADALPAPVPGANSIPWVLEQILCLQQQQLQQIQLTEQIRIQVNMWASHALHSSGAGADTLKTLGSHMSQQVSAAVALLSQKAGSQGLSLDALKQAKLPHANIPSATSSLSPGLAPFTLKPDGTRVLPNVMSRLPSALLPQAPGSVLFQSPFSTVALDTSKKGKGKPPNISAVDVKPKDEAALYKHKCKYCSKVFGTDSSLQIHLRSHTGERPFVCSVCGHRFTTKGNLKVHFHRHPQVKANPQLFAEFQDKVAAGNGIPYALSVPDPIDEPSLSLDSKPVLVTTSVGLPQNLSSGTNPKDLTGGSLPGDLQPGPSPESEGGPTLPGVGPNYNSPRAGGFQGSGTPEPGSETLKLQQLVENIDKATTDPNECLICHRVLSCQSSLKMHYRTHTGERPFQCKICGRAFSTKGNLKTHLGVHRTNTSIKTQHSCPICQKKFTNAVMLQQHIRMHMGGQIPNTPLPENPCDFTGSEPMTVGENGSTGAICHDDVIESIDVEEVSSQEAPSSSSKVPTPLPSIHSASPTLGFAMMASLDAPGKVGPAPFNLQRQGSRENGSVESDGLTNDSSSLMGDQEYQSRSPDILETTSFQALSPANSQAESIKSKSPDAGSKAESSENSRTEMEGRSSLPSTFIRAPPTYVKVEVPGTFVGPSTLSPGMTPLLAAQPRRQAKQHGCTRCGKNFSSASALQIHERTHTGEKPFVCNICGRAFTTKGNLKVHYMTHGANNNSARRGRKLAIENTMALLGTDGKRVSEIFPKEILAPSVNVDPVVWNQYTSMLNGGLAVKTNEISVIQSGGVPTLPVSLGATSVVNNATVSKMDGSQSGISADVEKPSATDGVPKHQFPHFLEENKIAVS"}
{"Strand": "ACTAAAGT", "E-score": 0.0415}
{"Strand": "GCATTCCA", "E-score": -0.0287}
{"Strand": "CTTACTAC", "E-score": 0.0899}
{"Strand": "AGTTCACC", "E-score": -0.0962}
{"Strand": "CAACGCTC", "E-score": -0.137}
{"Strand": "GTCAAGAA", "E-score": 0.0814}
{"Strand": "ACCTAGAT", "E-score": -0.16}
{"Strand": "ACAACAAC", "E-score": 0.186}
{"Strand": "ATTGTAGA", "E-score": 0.302}
{"Strand": "GCGTCCGA", "E-score": -0.298}
{"Strand": "AGCCTAGG", "E-score": -0.25}
{"Strand": "AATTTATG", "E-score": 0.383}
{"Strand": "CAGGTATG", "E-score": -0.031}
{"Strand": "ACAGAAAT", "E-score": 0.284}
{"Strand": "CCCTCCTA", "E-score": -0.12}
{"Strand": "ACTAGGCA", "E-score": -0.119}
{"Strand": "GACCGAGC", "E-score": -0.29}
{"Strand": "AACCACCT", "E-score": -0.0165}
{"Strand": "CACTCCAG", "E-score": -0.0204}
{"Strand": "CGCGCAAA", "E-score": 0.108}
{"data": "Study 3", "target": "ABI1, truncated, D143A, DHFR fusion (Arabidopsis thaliana)", "technique": "DHFR PCA, deep sequencing", "medium": "yeast", "setting": "methotrexate growth selection, single substitutions", "together with": "(+)-ABA 1.4 µM", "baseline": "wild-type fitted maximum", "direction": "higher = stronger binding", "starting sequence": "PYL1, truncated, DHFR fusion (Arabidopsis thaliana); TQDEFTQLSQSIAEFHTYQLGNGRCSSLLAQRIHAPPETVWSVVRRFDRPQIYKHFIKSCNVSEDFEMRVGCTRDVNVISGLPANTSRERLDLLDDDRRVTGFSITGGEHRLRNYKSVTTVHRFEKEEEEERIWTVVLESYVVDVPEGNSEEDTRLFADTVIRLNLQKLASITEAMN"}
{"Variant": "G81M", "relative binding score [%]": -3}
{"Variant": "L156Y", "relative binding score [%]": 12.9}
{"Variant": "V100M", "relative binding score [%]": 20.3}
{"Variant": "E130S", "relative binding score [%]": 68.3}
{"Variant": "G108F", "relative binding score [%]": -9.84}
{"Variant": "T101Q", "relative binding score [%]": -3.25}
{"Variant": "V62H", "relative binding score [%]": -3.84}
{"Variant": "R88A", "relative binding score [%]": 24.1}
{"Variant": "Y18R", "relative binding score [%]": 10}
{"Variant": "T73P", "relative binding score [%]": -4.82}
{"Variant": "I133C", "relative binding score [%]": 74.6}
{"Variant": "E151D", "relative binding score [%]": 34.7}
{"Variant": "R98I", "relative binding score [%]": 24.8}
{"Variant": "I12S", "relative binding score [%]": -4.66}
{"Variant": "E67L", "relative binding score [%]": 22.1}
{"data": "Study 4", "target": "Centromere-binding protein 1, full length, N-terminal tag (CBF1, Saccharomyces cerevisiae, UniProt P17106, residues 1-351)", "technique": "protein-binding microarray", "molecule type": "double-stranded DNA, one strand shown", "medium": "in vitro", "tested at": "0.8 µM", "setting": "whole 60-bp probe, no competitor", "direction": "higher = stronger binding", "sequence of UniProt P17106 (whole entry, looked up)": "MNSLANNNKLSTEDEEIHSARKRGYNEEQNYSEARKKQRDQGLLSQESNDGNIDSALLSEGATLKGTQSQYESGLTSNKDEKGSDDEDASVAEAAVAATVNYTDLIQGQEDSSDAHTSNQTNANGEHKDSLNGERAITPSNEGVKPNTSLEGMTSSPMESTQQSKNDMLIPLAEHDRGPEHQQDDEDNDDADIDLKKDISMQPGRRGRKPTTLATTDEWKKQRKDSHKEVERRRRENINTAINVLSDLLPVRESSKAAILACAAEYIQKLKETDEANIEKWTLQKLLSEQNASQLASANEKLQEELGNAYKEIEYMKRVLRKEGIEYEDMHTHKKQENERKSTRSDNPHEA"}
{"Strand": "CTAAATATTTTACTTCACGTTATATTCTTTTTTTTCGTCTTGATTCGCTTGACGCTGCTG", "fluorescence intensity [a.u.]": 599}
{"Strand": "GAATGTAATTATCAACACGTGCATTACCCAGCGTAGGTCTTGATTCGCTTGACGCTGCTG", "fluorescence intensity [a.u.]": 9190}
{"Strand": "CCTAACTACTATAGTCACGTTTCATAGCTTCGTACAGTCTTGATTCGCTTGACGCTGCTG", "fluorescence intensity [a.u.]": 2210}
{"Strand": "GAAGCATGCGGCTGATGTCAGATTTCGAACATTTAGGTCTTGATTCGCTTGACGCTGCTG", "fluorescence intensity [a.u.]": 541}
{"Strand": "CTAGCATCTGCAATGTGCGTGATTTCTCCGTTATTCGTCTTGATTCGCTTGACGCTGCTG", "fluorescence intensity [a.u.]": 584}
{"Strand": "CTATGTTTTTGCACTGGTGATTTGTAAACCAGATTCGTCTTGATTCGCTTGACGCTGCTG", "fluorescence intensity [a.u.]": 569}
{"Strand": "CTATATTTAGGTATTCTCCTGATTGTTTTCACTTTCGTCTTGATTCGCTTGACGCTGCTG", "fluorescence intensity [a.u.]": 543}
{"Strand": "TGTACGAAGCTATAAAACCTCACTATAGTAGTTAGGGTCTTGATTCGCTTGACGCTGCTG", "fluorescence intensity [a.u.]": 509}
{"Strand": "GAAGTTTATATAGGTATGGTGACGAGGCTCTACTAGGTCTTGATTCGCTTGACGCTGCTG", "fluorescence intensity [a.u.]": 571}
{"Strand": "GAACTTCGCTCTTGCTTCGTCACCTGCCCCGAATAGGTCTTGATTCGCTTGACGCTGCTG", "fluorescence intensity [a.u.]": 3050}
{"Strand": "CCTAACTACTATAAGCACATGGAATAGCTTCGTACAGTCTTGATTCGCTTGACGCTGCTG", "fluorescence intensity [a.u.]": 559}
{"Strand": "GAATCACAAAATGCATACCTGATGCATACACAGTAGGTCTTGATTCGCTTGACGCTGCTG", "fluorescence intensity [a.u.]": 495}
{"Strand": "CTAAAAGTAATACGCCACATGAAGACTAACGACTTCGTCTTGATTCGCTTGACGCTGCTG", "fluorescence intensity [a.u.]": 540}
{"Strand": "TGTACGAAGCTATTGCACGTGACTATAGTAGTTAGGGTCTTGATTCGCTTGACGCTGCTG", "fluorescence intensity [a.u.]": 18500}
{"Strand": "GAAAAGTGTCTTGCTCTGATGTATTTGTTTTTTTAGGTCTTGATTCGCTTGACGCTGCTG", "fluorescence intensity [a.u.]": 495}
{"Strand": "TGTACGAAGCTATGACATCAGACTATAGTAGTTAGGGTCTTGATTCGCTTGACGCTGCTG", "fluorescence intensity [a.u.]": 561}
{"Strand": "CTATTTTGTATCCTTTACATCAGGAATAACGTATTCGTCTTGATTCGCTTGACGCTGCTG", "fluorescence intensity [a.u.]": 559}
{"note": "Repeated from above (study 4):"}
{"Strand": "CCTAACTACTATAAGCACATGGAATAGCTTCGTACAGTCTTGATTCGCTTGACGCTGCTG", "fluorescence intensity [a.u.]": 559}
{"Strand": "CTAAAAGTAATACGCCACATGAAGACTAACGACTTCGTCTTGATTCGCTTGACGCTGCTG", "fluorescence intensity [a.u.]": 540}
{"Strand": "CTAGCATCTGCAATGTGCGTGATTTCTCCGTTATTCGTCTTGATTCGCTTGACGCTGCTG", "fluorescence intensity [a.u.]": 584}
{"Strand": "TGTACGAAGCTATGACATCAGACTATAGTAGTTAGGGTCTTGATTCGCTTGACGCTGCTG", "fluorescence intensity [a.u.]": 561}
{"Strand": "CTATTTTGTATCCTTTACATCAGGAATAACGTATTCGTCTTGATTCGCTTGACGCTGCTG", "fluorescence intensity [a.u.]": 559}
